Measurements collected from several papers.
Protocols differ between the studies behind these lines. Numbers after ± are the reported error.
CD209: CD209 antigen (CD209, Homo sapiens, UniProt Q9NNX6)
Chain of UniProt Q9NNX6 (whole entry, looked up): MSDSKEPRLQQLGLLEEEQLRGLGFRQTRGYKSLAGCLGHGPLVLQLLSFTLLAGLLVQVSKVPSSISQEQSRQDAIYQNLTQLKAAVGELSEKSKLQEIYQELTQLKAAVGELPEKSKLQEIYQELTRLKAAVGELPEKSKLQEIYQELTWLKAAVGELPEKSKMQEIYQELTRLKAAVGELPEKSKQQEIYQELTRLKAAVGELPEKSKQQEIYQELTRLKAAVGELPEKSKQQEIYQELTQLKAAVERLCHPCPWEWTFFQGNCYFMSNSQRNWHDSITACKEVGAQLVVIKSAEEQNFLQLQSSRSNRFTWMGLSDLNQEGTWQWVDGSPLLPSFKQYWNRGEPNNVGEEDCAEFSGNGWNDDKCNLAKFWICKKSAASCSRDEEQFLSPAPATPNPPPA
Kir3.1/Kir3.2: Kir3.1/Kir3.2 (Homo sapiens, UniProt P48051+P48549)
Chain of UniProt P48549 (whole entry, looked up): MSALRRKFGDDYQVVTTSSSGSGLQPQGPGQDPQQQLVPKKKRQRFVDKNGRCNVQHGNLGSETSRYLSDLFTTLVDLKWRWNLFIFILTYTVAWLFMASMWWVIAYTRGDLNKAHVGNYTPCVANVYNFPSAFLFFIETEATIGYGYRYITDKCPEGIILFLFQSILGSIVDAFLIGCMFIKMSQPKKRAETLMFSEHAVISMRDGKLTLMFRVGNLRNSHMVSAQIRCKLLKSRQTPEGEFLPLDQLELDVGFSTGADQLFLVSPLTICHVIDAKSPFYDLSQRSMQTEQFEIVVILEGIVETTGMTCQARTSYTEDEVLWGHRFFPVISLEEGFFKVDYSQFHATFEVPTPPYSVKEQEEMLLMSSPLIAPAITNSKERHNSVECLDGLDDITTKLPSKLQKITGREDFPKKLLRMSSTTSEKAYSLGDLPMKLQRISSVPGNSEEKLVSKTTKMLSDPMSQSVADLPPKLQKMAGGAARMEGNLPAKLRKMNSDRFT
Chain of UniProt P48051 (whole entry, looked up): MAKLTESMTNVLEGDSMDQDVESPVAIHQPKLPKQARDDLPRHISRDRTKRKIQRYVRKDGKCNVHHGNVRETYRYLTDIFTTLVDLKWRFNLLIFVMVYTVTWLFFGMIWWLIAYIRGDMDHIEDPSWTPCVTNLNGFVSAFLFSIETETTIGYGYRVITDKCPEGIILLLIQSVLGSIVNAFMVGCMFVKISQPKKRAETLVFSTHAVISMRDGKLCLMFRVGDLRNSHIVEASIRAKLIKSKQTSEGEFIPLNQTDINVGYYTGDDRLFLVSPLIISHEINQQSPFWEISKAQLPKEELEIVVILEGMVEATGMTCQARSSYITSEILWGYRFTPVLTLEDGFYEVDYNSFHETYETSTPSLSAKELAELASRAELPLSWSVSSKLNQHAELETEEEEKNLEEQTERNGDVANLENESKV
Cysltr2: Cysteinyl leukotriene receptor 2 (Cysltr2, Mus musculus, UniProt Q920A1)
Chain of UniProt Q920A1 (whole entry, looked up): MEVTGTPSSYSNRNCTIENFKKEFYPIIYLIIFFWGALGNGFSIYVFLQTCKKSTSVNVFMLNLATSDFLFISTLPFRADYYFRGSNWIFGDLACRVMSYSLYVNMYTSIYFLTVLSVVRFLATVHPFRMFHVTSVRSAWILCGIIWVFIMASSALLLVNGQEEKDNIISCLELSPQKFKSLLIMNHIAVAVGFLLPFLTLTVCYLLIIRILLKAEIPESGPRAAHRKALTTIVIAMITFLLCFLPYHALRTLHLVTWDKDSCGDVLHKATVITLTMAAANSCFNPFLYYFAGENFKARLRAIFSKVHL
Chain of UniProt P42684 (whole entry, looked up): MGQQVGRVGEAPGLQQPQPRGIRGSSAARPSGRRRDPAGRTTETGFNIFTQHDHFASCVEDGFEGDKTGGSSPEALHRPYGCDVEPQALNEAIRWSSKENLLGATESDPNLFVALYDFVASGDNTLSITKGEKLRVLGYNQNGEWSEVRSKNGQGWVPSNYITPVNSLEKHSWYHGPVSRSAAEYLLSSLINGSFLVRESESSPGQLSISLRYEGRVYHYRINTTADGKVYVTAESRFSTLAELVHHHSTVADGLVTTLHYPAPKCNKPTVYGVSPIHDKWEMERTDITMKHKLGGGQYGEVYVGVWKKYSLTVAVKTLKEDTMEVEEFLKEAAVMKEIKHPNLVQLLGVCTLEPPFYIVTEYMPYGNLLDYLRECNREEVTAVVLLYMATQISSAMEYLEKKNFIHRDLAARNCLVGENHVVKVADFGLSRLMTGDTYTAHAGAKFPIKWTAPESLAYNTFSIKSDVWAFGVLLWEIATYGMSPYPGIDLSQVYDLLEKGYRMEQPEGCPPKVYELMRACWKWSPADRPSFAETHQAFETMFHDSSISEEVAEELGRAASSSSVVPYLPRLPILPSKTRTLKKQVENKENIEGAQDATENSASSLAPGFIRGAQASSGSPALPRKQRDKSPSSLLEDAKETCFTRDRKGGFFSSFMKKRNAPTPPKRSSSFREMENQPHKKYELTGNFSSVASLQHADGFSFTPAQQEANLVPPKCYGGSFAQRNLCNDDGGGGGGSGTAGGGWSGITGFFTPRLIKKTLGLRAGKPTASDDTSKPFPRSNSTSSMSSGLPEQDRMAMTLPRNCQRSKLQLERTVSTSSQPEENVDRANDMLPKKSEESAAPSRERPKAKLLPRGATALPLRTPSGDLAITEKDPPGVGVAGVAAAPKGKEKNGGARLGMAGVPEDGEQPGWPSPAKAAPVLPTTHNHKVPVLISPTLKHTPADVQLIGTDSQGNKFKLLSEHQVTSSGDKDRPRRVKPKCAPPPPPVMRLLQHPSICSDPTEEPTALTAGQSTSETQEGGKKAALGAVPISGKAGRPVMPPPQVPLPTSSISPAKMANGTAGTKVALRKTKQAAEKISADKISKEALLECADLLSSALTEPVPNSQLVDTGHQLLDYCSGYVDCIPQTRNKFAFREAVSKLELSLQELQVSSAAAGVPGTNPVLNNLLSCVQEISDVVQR
Chain of UniProt Q99500 (whole entry, looked up): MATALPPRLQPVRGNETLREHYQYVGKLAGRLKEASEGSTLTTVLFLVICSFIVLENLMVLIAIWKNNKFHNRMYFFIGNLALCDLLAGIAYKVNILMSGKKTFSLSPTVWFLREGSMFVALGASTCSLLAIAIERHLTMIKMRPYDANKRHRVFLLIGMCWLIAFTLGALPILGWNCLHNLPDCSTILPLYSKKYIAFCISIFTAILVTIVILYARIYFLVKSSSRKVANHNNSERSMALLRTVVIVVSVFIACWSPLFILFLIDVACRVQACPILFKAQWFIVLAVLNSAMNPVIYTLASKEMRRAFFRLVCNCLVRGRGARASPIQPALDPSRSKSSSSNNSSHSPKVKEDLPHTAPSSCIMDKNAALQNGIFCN
Chain of UniProt Q704Y3 (whole entry, unmodified, looked up): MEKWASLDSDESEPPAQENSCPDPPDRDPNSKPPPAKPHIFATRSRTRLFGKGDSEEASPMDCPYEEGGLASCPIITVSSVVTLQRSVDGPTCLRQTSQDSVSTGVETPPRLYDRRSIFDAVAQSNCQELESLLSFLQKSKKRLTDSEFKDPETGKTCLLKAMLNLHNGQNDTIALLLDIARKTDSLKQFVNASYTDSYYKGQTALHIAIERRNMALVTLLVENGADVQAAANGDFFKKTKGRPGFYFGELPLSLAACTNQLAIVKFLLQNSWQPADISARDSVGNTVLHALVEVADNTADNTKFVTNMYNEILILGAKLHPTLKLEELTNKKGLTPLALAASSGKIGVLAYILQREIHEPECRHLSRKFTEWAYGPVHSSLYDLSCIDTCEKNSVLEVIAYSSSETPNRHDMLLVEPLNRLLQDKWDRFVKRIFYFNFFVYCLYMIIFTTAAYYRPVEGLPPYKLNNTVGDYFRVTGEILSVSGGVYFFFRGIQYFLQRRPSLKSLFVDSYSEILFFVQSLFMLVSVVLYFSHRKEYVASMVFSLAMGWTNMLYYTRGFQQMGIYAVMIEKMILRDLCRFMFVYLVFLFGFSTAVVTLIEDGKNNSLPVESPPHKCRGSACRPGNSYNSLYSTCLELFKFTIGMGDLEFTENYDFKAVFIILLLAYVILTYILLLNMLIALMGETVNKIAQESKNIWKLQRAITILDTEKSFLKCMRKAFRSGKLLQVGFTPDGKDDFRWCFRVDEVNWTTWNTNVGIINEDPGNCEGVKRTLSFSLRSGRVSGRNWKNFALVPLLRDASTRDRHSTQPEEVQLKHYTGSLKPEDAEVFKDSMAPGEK
Chain of UniProt P35414 (whole entry, looked up): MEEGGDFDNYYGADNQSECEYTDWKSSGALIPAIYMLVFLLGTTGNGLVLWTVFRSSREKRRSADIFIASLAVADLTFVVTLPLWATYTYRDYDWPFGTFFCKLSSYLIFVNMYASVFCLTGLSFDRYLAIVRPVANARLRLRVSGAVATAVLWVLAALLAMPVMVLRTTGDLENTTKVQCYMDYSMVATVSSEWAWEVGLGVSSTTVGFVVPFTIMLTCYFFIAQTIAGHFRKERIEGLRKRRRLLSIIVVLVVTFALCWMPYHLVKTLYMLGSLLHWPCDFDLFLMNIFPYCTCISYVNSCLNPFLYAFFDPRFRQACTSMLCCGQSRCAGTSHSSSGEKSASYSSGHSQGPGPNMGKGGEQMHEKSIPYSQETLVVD
Chain of UniProt P34995 (whole entry, unmodified, looked up): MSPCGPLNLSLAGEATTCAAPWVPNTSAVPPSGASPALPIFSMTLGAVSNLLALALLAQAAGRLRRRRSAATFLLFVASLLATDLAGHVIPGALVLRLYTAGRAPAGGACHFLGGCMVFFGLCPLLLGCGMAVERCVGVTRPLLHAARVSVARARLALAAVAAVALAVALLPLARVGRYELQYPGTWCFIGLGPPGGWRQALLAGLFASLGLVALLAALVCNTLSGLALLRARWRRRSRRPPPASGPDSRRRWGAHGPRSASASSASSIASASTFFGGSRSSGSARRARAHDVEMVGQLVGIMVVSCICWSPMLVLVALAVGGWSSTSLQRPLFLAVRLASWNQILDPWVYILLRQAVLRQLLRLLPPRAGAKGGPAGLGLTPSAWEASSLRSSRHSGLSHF

Compound | target | test | system | conditions | EC50 [nM]
O=C(ON1C(=O)CCC1=O)c1cc(C(F)(F)F)cc(C(F)(F)F)c1 | CD209 | binding, grating-coupled interferometry | Man(α1,2)Man-PEG3 chip | 2 h, no Tris | 125000
O=C(COc1cc(Cl)ccc1Cl)Nc1cc(C2CCC2)nn1C1CCOCC1 | Kir3.1/Kir3.2 | activator, thallium flux | HEK293 | – | 1100
FC(F)=Cc1cc(C(F)(F)F)cc(C(F)(F)F)c1 | CD209 | binding, plate-based HRP | – | overnight, room temperature | 84000
CCOCc1nc(O)c(-c2nnc(Cc3ccc(Cl)cn3)o2)c(O)c1-c1c(OC)cccc1OC | Apelin receptor (APLNR, Homo sapiens, UniProt P35414) | Gαi2 activation, agonist, BRET biosensor | HEK293 | – | 0.15 ± 0.04
O=C(COc1cc(Cl)ccc1Cl)Nc1cc(C2CCC2)nn1C1CCC(F)(F)CC1 | Kir3.1/Kir3.2 | activator, thallium flux | HEK293 | – | 480
Ic1ccc(N2CCN(Cc3c[nH]c4ncccc34)CC2)cc1 | Drd2 (Rattus norvegicus, UniProt P61169) | cAMP response, antagonist, AlphaScreen | HEK293 stably expressing D2 | added: (-)-quinpirole 60 nM | 1900 ± 2300
O=C(COc1ccc(Cl)cc1Cl)Nc1nn(-c2ccccc2)c2ncccc12 | Kir3.1/Kir3.2 | activator, thallium flux | HEK293 | – | > 10000
FC(F)(F)c1cc(Nc2nc(Cl)nc(Cl)n2)cc(C(F)(F)F)c1 | CD209 | binding, grating-coupled interferometry | – | Man(α1,2)Man-PEG3 chip surface | 58000
CCCCC[C@H](O)/C=C/[C@H]1[C@H](O)CC(=O)[C@@H]1C/C=C\CCCC(=O)O | PTGER1 (Homo sapiens, UniProt P34995, R338A) | IP1 accumulation, agonist | AD293 | EP1 R338A mutant | 191
CCCCCCCCCCCCC/C=C/[C@@H](O)[C@@H](N)COP(=O)(O)O | S1PR3 (Homo sapiens, UniProt Q99500) | agonist, cell-based | – | – | 24.5
CCCCC/C=C\C\C=C/C=C/C=C/[C@@H](SC[C@H](N)C(=O)O)[C@@H](O)CCCC(=O)O | Cysltr2 | potentiation of cAMP | HEK293T transfected with Cysltr2 | added: forskolin 1 µM | 20.6
CC(=O)c1cc([N+](=O)[O-])c(Sc2cccc(Cl)c2Cl)s1 | USP28 (Homo sapiens, UniProt Q96RU2) | enzyme activity, inhibitor | – | – | > 50000
O=C(COc1ccc(Cl)cc1Cl)Nc1cc(C2CC2)nn1C1CCC(F)(F)CC1 | Kir3.1/Kir3.2 | activator, thallium flux | HEK293 | – | 209
CCCCCCCC/C=C\CCCCCCCC(=O)NCCc1ccc(O)c(O)c1 | Trpv1 (Mus musculus, UniProt Q704Y3, S511A) | ion current, agonist, whole-cell patch clamp | – | 24 °C, S511A, +80 mV | 240 ± 50
Cn1cc2c(C(=O)O)ccc(NS(=O)(=O)c3ccc(OCC4CCC4)c(Cl)c3)c2n1 | HRH1 (Homo sapiens, UniProt P35367) | antagonist | – | – | > 10000
COc1cc(Nc2ncc3c(n2)-c2ccc(Cl)cc2C(c2c(F)cccc2OC)=NC3)ccc1C(=O)NCCOCCOCCNC(=O)COc1cccc2c1C(=O)N(C1CCC(=O)NC1=O)C2=O (stereo not drawn) | ABL2 (Homo sapiens, UniProt P42684) | binding, kinobead competition | MV4-11 cell lysate | – | > 30000
Cc1cc(NC(=O)C2CCc3cc(F)ccc3O2)n(C2CCS(=O)(=O)C2)n1 (stereo not drawn) | Kir3.1/Kir3.2 | activator, thallium flux | HEK293 | – | > 10000
O=Cc1c(O)cc(C(F)(F)F)cc1C(F)(F)F | CD209 | binding, plate-based HRP | – | overnight, room temperature | 23000
O=C(COc1ccc(Cl)cc1Cl)Nc1cc(C2CCC2)nn1C1CCOCC1 | Kir3.1/Kir3.2 | activator, thallium flux | HEK293 | – | 740
C[C@]12CCC(=O)C=C1CC[C@@H]1[C@@H]2[C@@H](O)C[C@@]2(C)[C@H]1CC[C@]2(O)C(=O)CO | NR3C2 (Homo sapiens, UniProt P08235) | reporter gene, agonist, Gaussia luciferase reporter | – | added: 18β-glycyrrhetinic acid 50/100 µM | ~70
CCc1cc(NC(=O)COc2cc(Cl)ccc2Cl)n(C2CCOCC2)n1 | Kir3.1/Kir3.2 | activator, thallium flux | HEK293 | – | 180
CCOc1ccc(N(C)S(=O)(=O)c2cc(Cl)sc2C(=O)Nc2ccc3c(c2)C(=O)NC3=O)cc1OC | NR1H2 (Homo sapiens, UniProt P55055) | – | – | – | > 25000
N#Cc1ccsc1NC(=O)COc1cc(Cl)ccc1Cl | Kir3.1/Kir3.2 | activator, thallium flux | HEK293 | – | > 10000
CCCCC/C=C\C\C=C/C=C/C=C/[C@@H](SC[C@H](N)C(=O)NCC(=O)O)[C@@H](O)CCCC(=O)O | Cysltr2 | potentiation of cAMP | HEK293T transfected with Cysltr2 | added: forskolin 1 µM | 0.3

Excerpt of the above:
Compound | target | test | system | conditions | EC50 [nM]
O=C(ON1C(=O)CCC1=O)c1cc(C(F)(F)F)cc(C(F)(F)F)c1 | CD209 | binding, grating-coupled interferometry | Man(α1,2)Man-PEG3 chip | 2 h, no Tris | 125000
O=C(COc1ccc(Cl)cc1Cl)Nc1cc(C2CC2)nn1C1CCC(F)(F)CC1 | Kir3.1/Kir3.2 | activator, thallium flux | HEK293 | – | 209
CCOc1ccc(N(C)S(=O)(=O)c2cc(Cl)sc2C(=O)Nc2ccc3c(c2)C(=O)NC3=O)cc1OC | NR1H2 (Homo sapiens, UniProt P55055) | – | – | – | > 25000
